Measured values collected from several papers.
Every numbered part comes from another study and shows a few of its results, in no order.
Chain of UniProt P29597 (whole entry, looked up): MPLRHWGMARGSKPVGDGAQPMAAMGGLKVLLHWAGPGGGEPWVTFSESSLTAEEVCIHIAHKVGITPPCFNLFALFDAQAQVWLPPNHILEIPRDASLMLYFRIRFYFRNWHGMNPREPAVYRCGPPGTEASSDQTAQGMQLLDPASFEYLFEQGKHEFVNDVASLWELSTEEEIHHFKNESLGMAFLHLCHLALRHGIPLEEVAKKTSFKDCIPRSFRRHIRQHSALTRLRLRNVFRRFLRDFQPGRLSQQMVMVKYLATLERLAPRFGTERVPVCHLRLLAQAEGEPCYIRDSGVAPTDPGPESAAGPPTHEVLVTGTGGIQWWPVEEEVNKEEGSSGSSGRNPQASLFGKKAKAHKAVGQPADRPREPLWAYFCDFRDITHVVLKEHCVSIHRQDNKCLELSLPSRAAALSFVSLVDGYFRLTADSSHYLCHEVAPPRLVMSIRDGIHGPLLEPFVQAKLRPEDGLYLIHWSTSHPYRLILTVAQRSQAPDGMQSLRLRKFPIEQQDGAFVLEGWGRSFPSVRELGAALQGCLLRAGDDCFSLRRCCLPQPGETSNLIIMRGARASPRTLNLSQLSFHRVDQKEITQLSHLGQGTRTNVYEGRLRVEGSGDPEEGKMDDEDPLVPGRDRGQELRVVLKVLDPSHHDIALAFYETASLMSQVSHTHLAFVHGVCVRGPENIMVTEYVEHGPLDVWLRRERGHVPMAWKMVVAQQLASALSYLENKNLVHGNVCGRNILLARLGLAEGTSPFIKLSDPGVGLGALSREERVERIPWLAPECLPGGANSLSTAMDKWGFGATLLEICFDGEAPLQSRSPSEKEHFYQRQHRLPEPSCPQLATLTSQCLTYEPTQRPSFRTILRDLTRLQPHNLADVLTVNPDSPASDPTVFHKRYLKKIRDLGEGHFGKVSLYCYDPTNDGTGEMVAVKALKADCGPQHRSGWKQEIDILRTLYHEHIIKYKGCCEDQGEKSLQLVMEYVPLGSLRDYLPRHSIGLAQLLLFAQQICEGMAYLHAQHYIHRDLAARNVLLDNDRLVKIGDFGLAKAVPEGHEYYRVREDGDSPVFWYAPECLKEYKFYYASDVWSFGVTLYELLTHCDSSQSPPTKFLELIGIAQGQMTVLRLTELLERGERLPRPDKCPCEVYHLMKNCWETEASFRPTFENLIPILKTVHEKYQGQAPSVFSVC
Chain of UniProt Q16832 (whole entry, looked up): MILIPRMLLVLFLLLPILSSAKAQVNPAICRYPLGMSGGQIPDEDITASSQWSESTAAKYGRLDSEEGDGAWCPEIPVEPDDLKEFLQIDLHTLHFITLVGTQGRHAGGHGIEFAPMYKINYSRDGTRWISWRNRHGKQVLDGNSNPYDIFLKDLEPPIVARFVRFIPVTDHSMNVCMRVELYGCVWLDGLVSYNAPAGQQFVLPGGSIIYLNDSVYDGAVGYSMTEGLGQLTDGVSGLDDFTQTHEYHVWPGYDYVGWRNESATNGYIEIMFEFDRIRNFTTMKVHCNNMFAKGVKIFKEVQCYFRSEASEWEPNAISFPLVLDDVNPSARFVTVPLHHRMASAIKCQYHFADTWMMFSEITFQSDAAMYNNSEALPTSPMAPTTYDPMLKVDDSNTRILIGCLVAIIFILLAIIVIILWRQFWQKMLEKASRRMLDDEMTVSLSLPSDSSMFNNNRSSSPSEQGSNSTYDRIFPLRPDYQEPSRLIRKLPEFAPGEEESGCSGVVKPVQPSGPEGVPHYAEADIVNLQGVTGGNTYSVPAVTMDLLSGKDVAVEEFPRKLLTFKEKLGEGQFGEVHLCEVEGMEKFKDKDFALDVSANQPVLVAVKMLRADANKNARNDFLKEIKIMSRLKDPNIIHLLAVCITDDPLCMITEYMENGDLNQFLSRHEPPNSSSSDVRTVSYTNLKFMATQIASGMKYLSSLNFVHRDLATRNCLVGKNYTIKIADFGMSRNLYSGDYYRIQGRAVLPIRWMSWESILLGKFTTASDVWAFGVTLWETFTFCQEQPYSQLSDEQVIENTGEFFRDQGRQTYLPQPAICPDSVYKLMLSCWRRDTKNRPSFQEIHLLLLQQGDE
Chain of UniProt O15111 (whole entry, looked up): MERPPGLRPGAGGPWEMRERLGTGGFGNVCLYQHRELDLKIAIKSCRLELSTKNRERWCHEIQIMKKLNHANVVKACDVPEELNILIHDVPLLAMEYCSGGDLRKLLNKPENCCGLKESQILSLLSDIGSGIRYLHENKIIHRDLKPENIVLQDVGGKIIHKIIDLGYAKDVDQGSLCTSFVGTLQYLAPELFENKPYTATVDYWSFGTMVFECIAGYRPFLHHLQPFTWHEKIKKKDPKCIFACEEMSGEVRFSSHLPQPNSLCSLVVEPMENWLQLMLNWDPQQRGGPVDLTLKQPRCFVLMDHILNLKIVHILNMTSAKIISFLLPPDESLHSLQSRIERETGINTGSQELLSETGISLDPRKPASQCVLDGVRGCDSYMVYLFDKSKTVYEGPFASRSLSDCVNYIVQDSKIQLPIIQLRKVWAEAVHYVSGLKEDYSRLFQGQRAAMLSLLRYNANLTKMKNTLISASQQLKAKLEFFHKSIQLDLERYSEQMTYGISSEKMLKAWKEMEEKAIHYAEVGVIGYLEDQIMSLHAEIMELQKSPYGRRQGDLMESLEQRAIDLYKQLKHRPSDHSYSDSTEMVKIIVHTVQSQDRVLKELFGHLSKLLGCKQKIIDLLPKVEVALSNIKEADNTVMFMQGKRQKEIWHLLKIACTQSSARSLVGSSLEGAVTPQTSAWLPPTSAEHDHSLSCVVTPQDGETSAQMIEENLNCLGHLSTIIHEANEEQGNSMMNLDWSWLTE
Chain of UniProt Q07002 (whole entry, looked up): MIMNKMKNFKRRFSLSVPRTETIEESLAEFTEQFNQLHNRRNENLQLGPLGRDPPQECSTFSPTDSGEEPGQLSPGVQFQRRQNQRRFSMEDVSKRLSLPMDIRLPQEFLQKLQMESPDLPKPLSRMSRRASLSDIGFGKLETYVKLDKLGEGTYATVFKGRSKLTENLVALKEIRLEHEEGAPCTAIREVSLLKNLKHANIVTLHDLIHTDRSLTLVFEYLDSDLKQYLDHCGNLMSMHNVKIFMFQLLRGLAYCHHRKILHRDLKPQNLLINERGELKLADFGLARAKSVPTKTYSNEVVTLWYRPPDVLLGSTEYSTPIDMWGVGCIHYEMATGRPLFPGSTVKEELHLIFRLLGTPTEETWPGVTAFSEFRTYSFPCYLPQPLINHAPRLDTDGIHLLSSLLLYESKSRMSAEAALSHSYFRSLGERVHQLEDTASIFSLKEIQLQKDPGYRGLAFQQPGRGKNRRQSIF
Chain of UniProt P53350 (whole entry, looked up): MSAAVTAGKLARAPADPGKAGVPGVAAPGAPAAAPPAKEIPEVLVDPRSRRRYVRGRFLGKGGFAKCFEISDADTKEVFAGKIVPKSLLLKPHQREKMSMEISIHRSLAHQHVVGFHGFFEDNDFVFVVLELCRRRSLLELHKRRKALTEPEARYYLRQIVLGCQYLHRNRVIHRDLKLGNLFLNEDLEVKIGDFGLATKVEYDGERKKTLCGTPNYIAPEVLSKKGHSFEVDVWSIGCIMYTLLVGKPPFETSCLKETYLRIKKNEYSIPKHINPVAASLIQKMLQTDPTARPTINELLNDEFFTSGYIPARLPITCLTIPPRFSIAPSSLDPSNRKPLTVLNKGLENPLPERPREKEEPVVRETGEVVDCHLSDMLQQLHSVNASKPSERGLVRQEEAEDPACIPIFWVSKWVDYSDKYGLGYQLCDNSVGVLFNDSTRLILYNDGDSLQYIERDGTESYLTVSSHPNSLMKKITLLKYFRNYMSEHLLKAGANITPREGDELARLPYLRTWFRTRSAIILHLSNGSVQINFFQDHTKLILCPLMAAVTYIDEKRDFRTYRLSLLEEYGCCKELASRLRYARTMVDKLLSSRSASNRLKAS
Chain of UniProt Q92772 (whole entry, looked up): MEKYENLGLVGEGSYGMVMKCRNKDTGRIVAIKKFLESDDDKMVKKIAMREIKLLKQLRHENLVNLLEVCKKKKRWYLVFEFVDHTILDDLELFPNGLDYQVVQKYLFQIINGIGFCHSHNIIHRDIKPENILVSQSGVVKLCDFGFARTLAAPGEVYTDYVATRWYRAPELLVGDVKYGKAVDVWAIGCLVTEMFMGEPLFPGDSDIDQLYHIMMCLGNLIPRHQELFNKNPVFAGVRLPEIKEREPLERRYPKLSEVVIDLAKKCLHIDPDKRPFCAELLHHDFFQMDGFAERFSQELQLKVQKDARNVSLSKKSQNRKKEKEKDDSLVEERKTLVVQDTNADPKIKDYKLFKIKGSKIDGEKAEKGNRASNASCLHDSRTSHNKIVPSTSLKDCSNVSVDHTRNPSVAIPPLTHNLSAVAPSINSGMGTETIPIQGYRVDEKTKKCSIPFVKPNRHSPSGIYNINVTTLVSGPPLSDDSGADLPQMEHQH
Chain of UniProt P49840 (whole entry, looked up): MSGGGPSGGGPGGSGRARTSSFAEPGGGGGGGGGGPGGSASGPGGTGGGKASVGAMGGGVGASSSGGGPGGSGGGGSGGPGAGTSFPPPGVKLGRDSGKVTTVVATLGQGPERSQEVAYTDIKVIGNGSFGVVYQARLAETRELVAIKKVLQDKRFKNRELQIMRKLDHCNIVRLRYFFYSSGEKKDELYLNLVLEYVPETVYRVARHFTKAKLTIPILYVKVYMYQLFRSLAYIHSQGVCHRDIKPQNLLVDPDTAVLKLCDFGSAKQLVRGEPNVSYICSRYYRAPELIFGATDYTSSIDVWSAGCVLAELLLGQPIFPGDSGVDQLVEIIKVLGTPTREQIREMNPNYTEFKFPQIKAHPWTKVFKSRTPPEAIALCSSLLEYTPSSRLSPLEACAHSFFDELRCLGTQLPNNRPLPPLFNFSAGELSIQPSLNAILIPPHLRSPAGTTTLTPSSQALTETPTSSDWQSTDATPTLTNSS

Set 1
Host: human
Matrix: microsomes or S9
Concentration: 2 µM
Time: 0.5 h
| Structure (SMILES) | remaining compound |
| --- | --- |
| CCOC(=O)Cc1c(C)nc2cc(-c3ccc(C)cc3)nn2c1O | 49.9% |
| Cc1c(C)n2c3c(=O)[nH]c(=O)n(C)c3nc2n1CCN(C)C | 99.8% |
| CCOc1cc(CNCCc2ccc(S(N)(=O)=O)cc2)ccc1OCc1ccccc1 | 55.2% |
| CC(OC(=O)c1cc2[nH]cnc2cc1F)c1nc2ncc(Br)cc2[nH]1 (stereo not drawn) | 40.4% |
| O=C(Cn1cc(C(=O)N2CCN(C3CCCC3)CC2)ccc1=O)Nc1nccs1 | 92% |
| CS(=O)(=O)C1=C(N)C(=O)N(c2ccccc2)C1c1ccccc1 (stereo not drawn) | 8.09% |
| CCc1nccn1-c1cc(C)nc2c(-c3ccc(Cl)cc3)cnn12 | > 100% |

Set 2
Compound: CO[C@@H](C)c1c(Nc2ccc([C@H](N(C)C(=O)C3CCS(=O)(=O)CC3)C(F)(F)F)cc2)cnc2cc(Cl)nn12
Effect on: cell-free assay
Method: competition with immobilised ligand
Concentration: 1 µM
| target | remaining binding |
| --- | --- |
| EGFR (Homo sapiens, UniProt P00533, L861Q) | 100% |
| Non-receptor tyrosine-protein kinase TYK2, JH1 (TYK2, Homo sapiens, UniProt P29597) | 100% |
| ULK3 (Homo sapiens, UniProt Q6PHR2) | 94% |
| CHUK (Homo sapiens, UniProt O15111) | 100% |
| CDK18 (Homo sapiens, UniProt Q07002) | 93% |
| PLK1 (Homo sapiens, UniProt P53350) | 77% |
| Tyrosine-protein kinase ABL1, non-phosphorylated (ABL1, Homo sapiens, UniProt P00519, T315I) | 100% |
| DDR2 (Homo sapiens, UniProt Q16832) | 100% |
| PLK4 (Homo sapiens, UniProt O00444) | 100% |
| FLT3 (Homo sapiens, UniProt P36888, D835V) | 59% |
| TAOK3 (Homo sapiens, UniProt Q9H2K8) | 100% |
| MAP3K9 (Homo sapiens, UniProt P80192) | 100% |
| CDKL2 (Homo sapiens, UniProt Q92772) | 90% |
| MYLK3 (Homo sapiens, UniProt Q32MK0) | 84% |

Set 3
Method: PRP chromatography
Notes: linear fit, 1 mL
| SMILES | logD 1,9-decadiene/water |
| --- | --- |
| CC(C)C[C@@H]1NC(=O)[C@H](Cc2cscn2)NC(=O)[C@H](CC(C)C)NC(=O)[C@H](C(C)C)NC(=O)[C@H](CC(C)C)NC(=O)[C@@H](CC(C)C)NC(=O)[C@H](CC(C)C)NC1=O | 0.231 log units |
| CC(C)C[C@@H]1NC(=O)[C@H](C)NC(=O)[C@H](Cc2cscn2)NC(=O)[C@H](CC(C)C)NC(=O)[C@@H](CCC(=O)N2CCCC2)NC(=O)[C@H](CC(C)C)NC(=O)[C@@H](CC(C)C)NC1=O | -1.32 log units |
| CC(C)C[C@@H]1NC(=O)[C@H](Cc2cscn2)NC(=O)[C@@H](CC(C)C)NC(=O)[C@H](CC(C)C)NC(=O)[C@@H](Cc2cscn2)NC(=O)[C@H](CC(C)C)NC(=O)[C@@H](CC(C)C)NC1=O | -4.39 log units |
| CC(C)C[C@@H]1NC(=O)[C@H](CC(C)C)NC(=O)[C@@H](CC(C)C)NC(=O)[C@@H](C)NC(=O)[C@H](C(C)C)NC(=O)[C@H](C)NC(=O)[C@H](C)NC1=O | -2.32 log units |
| CC(C)C[C@@H]1NC(=O)[C@@H](C)NC(=O)[C@H](CCC(=O)N2CCCC2)NC(=O)[C@@H](C(C)C)NC(=O)[C@H](C)NC(=O)[C@H](CC(C)C)NC(=O)[C@@H](CC(C)C)NC1=O | -4.39 log units |
| CC(C)C[C@@H]1NC(=O)[C@H](C)NC(=O)[C@@H](CC(C)C)NC(=O)[C@@H](CC(C)C)NC(=O)[C@@H](Cc2cscn2)NC(=O)[C@H](CC(C)C)NC(=O)[C@@H](CC(C)C)NC1=O | 0.924 log units |

Set 4
SMILES: COc1ccc2[nH]c3c4[nH]c5ccc(OC)cc5c4c4c(c3c2c1)C(=O)NC4=O
Effect on: binding
Concentration: 1 µM
| target | test | remaining binding [%] |
| --- | --- | --- |
| RIPK4 (Homo sapiens, UniProt P57078) | – | 83 |
| FLT3 (Homo sapiens, UniProt P36888, N841I) | – | 0 |
| CDKL1 (Homo sapiens, UniProt Q00532) | – | 75 |
| WEE2 (Homo sapiens, UniProt P0C1S8) | competition with immobilised ligand | 87 |
| GSK3A (Homo sapiens, UniProt P49840) | – | 100 |
| OXSR1 (Homo sapiens, UniProt O95747) | – | 100 |

For quick reference, copied from above (set 2):
| target | remaining binding |
| --- | --- |
| PLK4 (Homo sapiens, UniProt O00444) | 100% |
| TAOK3 (Homo sapiens, UniProt Q9H2K8) | 100% |
| CDKL2 (Homo sapiens, UniProt Q92772) | 90% |
